Measured values from different studies.
A part holds a random share of what one study measured. Substitutions count along the parent as printed.

Set 1 — method: universal PBM; molecule type: double-stranded DNA, one strand shown; sample: in vitro; tested at: 600 nM; reading: higher = stronger binding; quantity: E-score
Target: Sal-like protein 4, full length isoform A (SALL4, Homo sapiens, UniProt Q9UJQ4, residues 1-1053)
UniProt Q9UJQ4, sequence (whole entry, looked up): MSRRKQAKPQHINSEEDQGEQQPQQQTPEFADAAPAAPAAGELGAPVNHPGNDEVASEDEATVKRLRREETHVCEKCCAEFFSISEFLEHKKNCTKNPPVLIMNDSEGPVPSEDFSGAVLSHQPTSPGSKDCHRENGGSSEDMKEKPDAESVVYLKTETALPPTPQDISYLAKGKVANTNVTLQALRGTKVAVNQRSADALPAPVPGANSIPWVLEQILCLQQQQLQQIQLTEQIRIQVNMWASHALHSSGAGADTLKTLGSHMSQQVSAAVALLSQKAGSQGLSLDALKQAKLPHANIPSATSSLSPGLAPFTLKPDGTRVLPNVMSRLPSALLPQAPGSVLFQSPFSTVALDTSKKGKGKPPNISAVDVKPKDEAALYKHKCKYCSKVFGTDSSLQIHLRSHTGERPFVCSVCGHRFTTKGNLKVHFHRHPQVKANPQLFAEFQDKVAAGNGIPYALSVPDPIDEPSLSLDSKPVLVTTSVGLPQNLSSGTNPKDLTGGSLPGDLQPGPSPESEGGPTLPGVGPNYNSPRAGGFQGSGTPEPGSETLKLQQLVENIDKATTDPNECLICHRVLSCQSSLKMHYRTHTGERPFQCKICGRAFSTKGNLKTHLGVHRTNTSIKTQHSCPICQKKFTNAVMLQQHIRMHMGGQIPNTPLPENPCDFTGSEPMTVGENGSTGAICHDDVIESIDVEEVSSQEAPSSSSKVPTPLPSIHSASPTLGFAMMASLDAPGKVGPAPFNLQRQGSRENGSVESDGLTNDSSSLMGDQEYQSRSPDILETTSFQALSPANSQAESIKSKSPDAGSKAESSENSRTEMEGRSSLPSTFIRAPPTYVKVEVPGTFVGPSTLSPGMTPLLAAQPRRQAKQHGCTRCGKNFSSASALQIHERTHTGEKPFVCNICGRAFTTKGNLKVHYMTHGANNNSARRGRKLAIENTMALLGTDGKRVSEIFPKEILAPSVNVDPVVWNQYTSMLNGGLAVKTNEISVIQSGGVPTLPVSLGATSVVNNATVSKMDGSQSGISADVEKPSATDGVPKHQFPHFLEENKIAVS
Notes: 8-mer, flanks averaged, mean of replicates
AGCTACAT: 0.0735
GCAGAAAA: 0.0568
CGTGATAG: -0.0447
ATGCTGTG: 0.0257
GAACTCCA: -0.0374
GTGCGAAA: 0.0517
CATGTTAC: 0.123
AGTCACCC: -0.191
ACTTTCGC: 0.0325
ATAGGTCA: 0.216
CCATCACG: -0.0521
ACCACAGA: -0.00285

Set 2 — target: NFE2L2, bZIP domain (human); method: DHFR protein complementation; sample: yeast; baseline: wild-type JUN-FOS pair; reading: higher = stronger binding; quantity: binding fitness
Notes: single substitutions, most at no-binding floor
Starting sequence: JUN, bZIP domain (human); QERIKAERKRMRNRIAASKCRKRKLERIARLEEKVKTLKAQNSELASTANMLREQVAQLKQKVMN; partner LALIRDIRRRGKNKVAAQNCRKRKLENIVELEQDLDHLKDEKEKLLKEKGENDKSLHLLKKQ
L52E: -1.42 natural log
S47V: -1.32 natural log
A46W: -1.44 natural log
I28D: -1.54 natural log
M51F: -1.46 natural log
L45M: -1.37 natural log
A40S: -1.4 natural log
M51K: -1.45 natural log
T48W: -1.33 natural log
L38D: -1.57 natural log
L52K: -1.48 natural log
L38H: -1.45 natural log

Set 3 — method: DHFR PCA, deep sequencing; sample: yeast; added: (+)-ABA 0.0091 µM; baseline: wild-type fitted maximum; reading: higher = stronger binding; quantity: relative binding score
Target: ABI1, truncated, D143A, DHFR fusion (Arabidopsis thaliana)
Notes: methotrexate growth selection, single substitutions
Starting sequence: PYL1, truncated, DHFR fusion (Arabidopsis thaliana); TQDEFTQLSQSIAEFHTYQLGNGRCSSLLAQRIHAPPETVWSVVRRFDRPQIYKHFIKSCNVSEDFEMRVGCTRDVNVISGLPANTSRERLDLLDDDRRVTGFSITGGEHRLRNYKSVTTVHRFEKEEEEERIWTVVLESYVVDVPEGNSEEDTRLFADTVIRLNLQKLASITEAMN
R99N: -1.35%
A175H: 14%
R132T: 43.2%
Y53A: -2.32%
G107R: 3.2%
K58V: 4.49%
Q167S: 12.9%
R155W: -4.05%
S171K: 32.8%
C60S: -1.09%
Q2I: 74.5%
I33M: 2.01%
D97C: 11.8%

Further values, each from its own experiment
PhoQ, residues 284 288 289 292 302 303 SASVAL
fold induction (PhoP, residues 12 14 15 18 19 LYFRQ (Escherichia coli, UniProt P23836); Sort-seq, item: YFP reporter; E. coli; PhoQ-PhoP variant library, added: 10 µM Mg2+; baseline: high Mg2+ state, higher = stronger signaling): 1.34
